Measured values from different studies.
Each numbered part is a random draw from the data of one study; scales do not carry over between parts.

Block 1 — method: competition protein-binding microarray; molecule type: double-stranded DNA, one strand shown; sample: in vitro; concentration: 2 µM; added: Cbf1 competitor, 0.05 µM; reading: higher = stronger binding; endpoint: fluorescence intensity
Target: Phosphate system positive regulatory protein PHO4, full length, GST-tagged (PHO4, Saccharomyces cerevisiae, UniProt P07270, residues 1-312)
Setting: whole 60-bp probe, lowest competitor level
Residues (chain): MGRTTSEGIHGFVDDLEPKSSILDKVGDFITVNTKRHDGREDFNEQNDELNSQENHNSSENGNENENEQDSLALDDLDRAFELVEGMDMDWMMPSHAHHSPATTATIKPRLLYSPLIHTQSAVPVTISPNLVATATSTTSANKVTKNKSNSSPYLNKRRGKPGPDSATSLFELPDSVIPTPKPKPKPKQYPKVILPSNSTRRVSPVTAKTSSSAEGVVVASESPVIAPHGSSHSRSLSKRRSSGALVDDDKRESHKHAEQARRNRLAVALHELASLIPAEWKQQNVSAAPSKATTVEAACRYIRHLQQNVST
AAAGCGGTAATTTTTCACGTGAATTCACATATCTATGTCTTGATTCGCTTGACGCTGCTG: 8130 a.u.
CATACCCAACCTTGGTCCGTGGGTGAAGATATTTGTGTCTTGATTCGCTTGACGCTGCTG: 7170 a.u.
TATATTTCTTTCCATCACGTGCTTTAAAAATAATTAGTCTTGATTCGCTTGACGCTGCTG: 20200 a.u.
CTTTCCCGATCTTGGAGCGTGGGTGTAGCACATTTGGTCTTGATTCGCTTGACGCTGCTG: 9190 a.u.
AACTTTGAGCTTCCTCACGTGGAACATAAGATAGATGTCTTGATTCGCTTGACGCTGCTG: 15900 a.u.
AAATTACTAAGTTGGATGGTGGGTGACGCCGTATGAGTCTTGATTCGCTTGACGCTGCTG: 4680 a.u.
GTTATGGAGATAACACACGTGCCGAGAGGAAAATAGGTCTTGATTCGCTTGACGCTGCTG: 19100 a.u.
ATGAGATACTTGAAACACGTTTCAAGAAGATTCAAGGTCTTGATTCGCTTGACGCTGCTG: 11000 a.u.
AACCTAAAACGACTTTGTGTGACGCCGAAGAGAAAGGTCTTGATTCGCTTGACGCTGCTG: 4130 a.u.
TTTACAATTCCAAACCATGTGATGCTTGTCAGAGGGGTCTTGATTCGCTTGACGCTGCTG: 8450 a.u.
CATCATCGCATCTTACAGATGTCCCGGTTTCACTTTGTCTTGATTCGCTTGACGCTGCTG: 4360 a.u.
CGTCCTAGCGATTGACAAGTGGGTGCCATGAGGAAGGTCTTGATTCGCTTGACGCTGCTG: 6580 a.u.
CTTTTGTCCAAGTTCCACGTGTCCAAAAATTGGAAAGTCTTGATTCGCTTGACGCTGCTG: 15600 a.u.
TTGTGTGTATGGTTCCACGTTTCTGCCTTGTGCTTTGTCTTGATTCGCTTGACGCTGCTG: 14200 a.u.
AATAATATATCTCACCACGTGGGACATTGGGCACTTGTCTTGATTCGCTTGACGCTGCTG: 20100 a.u.
TGCGCAACAACTTGGGCTGTGGGTGTATGTCTAGAAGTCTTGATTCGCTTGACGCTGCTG: 4400 a.u.
GGATACCTCCGCCGTCATATGATAATAATGTTCGTTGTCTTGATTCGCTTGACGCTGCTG: 3820 a.u.
ATGGGCCGATAGTACCACCTGATCTTGAGTTGTTTTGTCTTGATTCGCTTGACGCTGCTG: 4050 a.u.
ACAAAGGCACCAAGCGGCGTGGGACGCTTTCTTGTGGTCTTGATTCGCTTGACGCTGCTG: 7530 a.u.

Block 2 — method: RNA Bind-n-Seq; molecule type: RNA; sample: in vitro; concentration: not given; setting: RNA with constant flanks, ends assumed; baseline: input RNA pool; reading: higher = stronger binding; endpoint: bound/input enrichment
Target: RING finger protein unkempt homolog, zinc fingers 1-6, GST-SBP tag (UNK, Homo sapiens, UniProt Q9C0B0, residues 30-357)
Chain of UniProt Q9C0B0 (30-357, looked up): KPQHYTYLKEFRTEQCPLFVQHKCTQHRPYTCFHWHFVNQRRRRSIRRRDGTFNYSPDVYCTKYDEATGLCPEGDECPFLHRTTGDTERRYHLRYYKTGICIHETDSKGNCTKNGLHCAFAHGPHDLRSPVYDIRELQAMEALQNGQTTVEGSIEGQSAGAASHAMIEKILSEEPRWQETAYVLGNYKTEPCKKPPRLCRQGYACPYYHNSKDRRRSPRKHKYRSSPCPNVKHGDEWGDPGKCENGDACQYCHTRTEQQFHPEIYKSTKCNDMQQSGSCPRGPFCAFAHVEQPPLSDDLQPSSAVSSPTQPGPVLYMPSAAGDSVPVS
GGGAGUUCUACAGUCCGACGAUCAGCUGUGCCUGCUAAAAUGGAUCAGUGAGAGAGGUUCCUGGACCUGUGAACUUUGCUGUUACCGAUACCAUGUUAUAGCCAUUAAAAUGAAACAACCUUGCCAGGUCUCAUUGUUCAUGACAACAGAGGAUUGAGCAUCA: 0.332 ratio
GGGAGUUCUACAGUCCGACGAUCAUUGAACAGCACUAUUUUGAAGAUCGUGGUAAAGGCAGGCUGUCAUAGAGUUAUGUGUCCGUCUCAGGAGUCUUAACUUUUGAAAUAUGUUUUACUUGAAUGUUACAUUAGAUAUUGGUGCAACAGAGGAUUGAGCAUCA: 3.12 ratio
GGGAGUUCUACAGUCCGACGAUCUGAACUAAAGGAGUUAGCAUCUUUAUUUUUGUAUCAAAGAUAAAGGUUAUUUUGAAAAUUAUCCGGGUUUUUACAUAACUCUGGAAUCUGUUGCUUUUAUAAACAAAUUGUUCAAUUUUACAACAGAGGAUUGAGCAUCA: 10.7 ratio
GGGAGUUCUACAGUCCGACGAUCGUUAUAGGAGUUUACAAAAAAAUACCAACAUGUCAUCACCCACGCCAUUUAAGAUGAGAUCCGUUCAUUUGGACCUUAAAGGAGCGCCGCCAAAGGUUUCAUAUCUCUCUGAGGUUUUUCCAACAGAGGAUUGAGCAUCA: 1.65 ratio
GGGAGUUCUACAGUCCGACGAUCUUAUACCUUUUGGUUAUAAGCCCUGUGUUUGCCAUCCUUGAUCACUUGGCGGUGACUUUGCCGAGAUUGAAGUGGAGGAGUUAAGACACAUUGACUGUACCACAGACACACAUGUAUACUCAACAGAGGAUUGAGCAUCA: 0.174 ratio
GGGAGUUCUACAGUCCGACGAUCGCAGAUGAAGUAGAGUUUACUGUGGUUCCUGAUAUGCUCUCUGCCCAAAGAAAUCAUGCUAUCCGGAUUAAAAAACUUCCCAAGGGCACGGUUUCAUUCCAUUCCCAUUCAGAUCAUCGUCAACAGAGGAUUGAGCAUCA: 0.307 ratio
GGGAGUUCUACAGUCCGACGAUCGUUGUCAGUGUGGACAAAGGAAGCAGAGCUGUGCUGUGGGCACAGCCUUGAUGCUGCACCCUCCGGAGCACCGUGGGACCCCACGGCCCAUCUUGGAGAAUGAUGUGUCCUCCCAGAAAACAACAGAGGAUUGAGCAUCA: 0.11 ratio
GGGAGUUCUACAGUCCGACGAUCAUGUGCAAGGAAAUUAUUCCAACUAGUGAAUUUAUUAACAGUAAGUUAACAGCAAAAGCAAACCGGCAACUUCAAGAUCCUUUAGUAAUCAUGACAGGAAACAUCCCAACAUGGCUUACUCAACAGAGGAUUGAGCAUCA: 0.803 ratio

Block 3 — method: RNA Bind-n-Seq; molecule type: RNA; sample: in vitro; concentration: 200 nM; setting: whole 134-nt RNA, ends assumed; added: 150 mM LiCl; baseline: input library; reading: higher = stronger binding; endpoint: log2 enrichment; all molecules: 7-deaza-guanosine replaces G
Target: Fragile X messenger ribonucleoprotein 1, C-terminal low-complexity region (Fmr1, Mus musculus, UniProt P35922)
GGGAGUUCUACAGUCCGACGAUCUCAAGUCCUGUGCUACACAUCGUAUGUACCGAAUCGGGAGGGAGGGUUUUUGGGAAAGUAUUAUGUUACGCCGUUCGGAUCUGCACUUCCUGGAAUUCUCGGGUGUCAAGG: -0.684
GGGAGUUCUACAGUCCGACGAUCUGGACCCGGAGCUGAUGCAGAAGUUCAGCUGCCUGGGCACCACCGACAAGGACGUGCUCAUCUCCGAGUUCCAGAGGCUGCUCGGCUUCCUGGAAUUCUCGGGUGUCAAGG: -2.36
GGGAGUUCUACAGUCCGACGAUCUCCUGUGCUACACAUCGUAUGUACCGAAUCGGGCCCCCCGGCCCCCCGGGGCCCCCCGGGAAAGUAUUAUGUUACGCCGUUCGGAUCUGCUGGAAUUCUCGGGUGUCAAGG: -0.61
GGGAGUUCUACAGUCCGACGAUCUGGGAGGUGGAUUUUGUUUAUUUUUUUAGCUCAUUUCCAGGGGUGGGAAUUUUUUUUUAAUAUGUGUCAUGAAUAAAGUUGUUUUUGCAAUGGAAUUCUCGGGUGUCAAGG: 0.994
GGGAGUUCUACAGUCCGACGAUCGUCCUGUGCUACACAUCGUAUGUACCGAAUCGGGAAAGGGUUUUUUUGGGAAAAAGGGAAAGUAUUAUGUUACGCCGUUCGGAUCUGCACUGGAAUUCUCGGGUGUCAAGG: -1.08
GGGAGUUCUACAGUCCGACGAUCGCAGGAAGUAAAAACAAAUGGAAAUGCUUCGGAUAGUCGCAGGGGUGGGGGUUGCUAAGGAAAGGGUGGGAUGGGAGUGGGUAAAGAGUUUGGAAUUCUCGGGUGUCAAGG: 1.4

Block 4 — method: protein-binding microarray; molecule type: double-stranded DNA, one strand shown; sample: in vitro; concentration: 2200 nM top; setting: 60-bp whole probe; added: salmon DNA 0.4 mg/ml; baseline: random background probes; reading: higher = stronger binding; endpoint: fitted relative affinity; constant ends, left off below: GCCTAGCAC … GTCTTGATTCGCTTGACGCTGCTG
Target: Interferon regulatory factor 7, full length, phosphomimetic (IRF7, Homo sapiens, UniProt Q92985, residues 1-503, S471D/S472D/S475D/S476D/S477D/S483D/S484D/S487D)
Residues (chain): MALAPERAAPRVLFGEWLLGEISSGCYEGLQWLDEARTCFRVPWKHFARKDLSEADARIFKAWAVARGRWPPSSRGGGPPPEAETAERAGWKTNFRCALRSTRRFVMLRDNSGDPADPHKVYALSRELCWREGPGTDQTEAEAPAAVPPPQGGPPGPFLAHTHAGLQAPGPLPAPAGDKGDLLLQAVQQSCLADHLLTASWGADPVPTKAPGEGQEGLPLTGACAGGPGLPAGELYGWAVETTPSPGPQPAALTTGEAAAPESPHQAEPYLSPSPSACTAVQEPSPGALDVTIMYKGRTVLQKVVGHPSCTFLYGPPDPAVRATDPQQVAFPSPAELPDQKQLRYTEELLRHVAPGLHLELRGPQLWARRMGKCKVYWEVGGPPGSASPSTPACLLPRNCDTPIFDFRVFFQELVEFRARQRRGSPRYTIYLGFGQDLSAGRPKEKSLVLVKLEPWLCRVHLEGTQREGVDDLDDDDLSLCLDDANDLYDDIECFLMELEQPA
TCATTCCTCTTTTTTGTACTGTGCTAG: 2.86 z-score
ATAGGACTGGGACTGGGTTAGTGCTAG: -0.712 z-score
TTAGAACTGGGGTAACGATTAGTGCTA: -0.447 z-score
TTAGGTTTCGGACTGGGGTAGTGCTAG: 3.38 z-score
TTAGAACTGGGGTATCAATTAGTGCTA: -0.103 z-score
TTAGCACTGGGGACTGGATTAGTGCTA: -0.497 z-score
TTAGGTATCGACTATCGGTCAGTGCTA: 0.148 z-score
AATTTTTTTTCTAACTAAAAGTGCTAG: -0.0773 z-score
TTAGAACTGGGTTTTCGATTAGTGCTA: 2.44 z-score
TTAGGTCTCCTTATCCTTCAGTGCTAG: 1.15 z-score
TTAGTTATCGGGTATCGGTTAGTGCTA: 1.35 z-score
ATCACTTTCCACTTGTCTTTGTGCTAG: 8.29 z-score
GACGGTCTCGTTATCCTGACGTGCTAG: 1.1 z-score
AATAAAATGAATATTAGAAGGTGCTAG: -1.18 z-score
TTTCTTTTCCATTTTGTGTTGTGCTAG: 7.41 z-score
GACGAACTGAGTATAGAGACGTGCTAG: -0.274 z-score
TCAAGTTGGACCTCTCAGACTGTGCTA: -0.287 z-score
TAAGGTATCGGACTGGGTTAGTGCTAG: -0.0993 z-score
TCATTTTTTTAATTGAGACTGTGCTAG: 0.558 z-score
